Experimental data from different studies.
Every numbered part comes from another study and shows a few of its results, in no order. Changes are numbered by the printed parent chain.

Block 1
Target: CCNB1, cyclin fold, Cln2 fusion (human)
Technique: yeast growth competition, sequencing
Medium: yeast
Setting: weak parent motif
Reference: not given
Direction: higher = stronger binding
Starting sequence: FOXM1 docking peptide (human); PHLARPIKVESPP
| Substitution | normalised enrichment score |
| --- | --- |
| P1A | -0.131 |
| L3A | 0.0822 |
| H2A | -0.103 |
| P6A | -0.287 |
| E10A | -0.428 |
| R5A | -0.305 |

Block 2
Target: Histone acetyltransferase KAT6A, winged helix 2, GST fusion (KAT6A, Homo sapiens, UniProt Q92794, residues 85-181)
Technique: protein binding microarray
Form: double-stranded DNA, one strand shown
Medium: in vitro
Tested at: not given
Setting: 8-mer, flanks averaged, mean of 2 arrays, mostly near background
Reference: not given
Direction: higher = stronger binding
Residues (chain): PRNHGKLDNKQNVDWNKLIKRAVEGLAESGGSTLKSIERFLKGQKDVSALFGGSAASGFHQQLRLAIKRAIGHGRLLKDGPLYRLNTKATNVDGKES
| Sequence | E-score |
| --- | --- |
| ATACTCCA | -0.0796 |
| AACTCCAT | -0.185 |
| AGTCAAAC | -0.128 |
| CCCGGCGC | 0.225 |
| GCTTAACA | 0.0349 |
| GACTTTTA | -0.279 |
| CTCTGTGA | 0.054 |
| ACGGATTG | 0.0284 |
| TGAACCAA | 0.222 |
| CGACGATA | 0.0707 |
| ACCGATCT | -0.115 |
| CCTTAAAC | 0.056 |
| CGCATTCA | 0.14 |
| GGTCCAAC | -0.0346 |
| AAATCCAC | 0.0306 |
| ATCACCTG | -0.178 |
| ACATCCCG | -0.0857 |
| GTTGCAAC | -0.0969 |
| ACGGAGCA | -0.0134 |
| ACTTGTAG | -0.135 |

Block 3
Target: RNA binding protein fox-1 homolog 2, RRM domain, GST-SBP tag (RBFOX2, Homo sapiens, UniProt O43251-10, residues 100-194)
Technique: RNA Bind-n-Seq
Form: RNA
Medium: in vitro
Tested at: 365 nM
Setting: natural RNA segment, single round, ends assumed
Reference: no-protein control
Direction: higher = stronger binding
Shared flanks, not repeated: GGGAGUUCUACAGUCCGACGAUC … UGGAAUUCUCGGGUGCCAA
Residues (chain): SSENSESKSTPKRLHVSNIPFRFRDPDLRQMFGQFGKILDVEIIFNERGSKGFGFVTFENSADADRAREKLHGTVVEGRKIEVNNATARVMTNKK
| Sequence | RBNS enrichment (R) |
| --- | --- |
| UUGACAUCUGGAGCUGGAGGCCUGCAUAGGCUGCAUGCAGACACGUGCCAGCGUGAAGCUGGUGAAGACCUGCCAGGAGGCAGCCACAGGCGAGUGCCAGCAGUGUUACU | 0.54 |
| UUAGAGGAGCGCUGUCCCUAUCCCUUGCUCCUUCUGGCCGGUCCGCAUUUCUGUUCACUAACCCCACUCCAGGACACUGCCCCUGAAGCCUUUGCAUCUCUGCUCUUCAC | 0.882 |
| UAUAAACCCUGUAUGUGUUUAUAUGUGCUUCACAGAGUUCGUGUCAGGCUCAAAGGAGAUAUGUAUAAGAAAGUGGUUUGUAAAUUAUGUUCCAUUUCAUAAAUAGACAC | 1.39 |
| UCGGUUCACUGUAGAUCCAGUUCUUCCAGCCGCUUCAGCACUGAGGCGCCAUGAAUGCGGUUUCUCUGUGUAGCUCUGAGAGUUCGUUUCAUAGAACACAACACUUGAGC | 0.272 |
| AAUUUGGGAUACAUAUAAGUUAAUCUUAUCAAAUAAUAUUUAAAAUUGUCAAUCAAUUUUACCAAUAACAAAGCCAAUAAUAUACUGUUAACAAAGACAAACUGCUUCGA | 0.474 |
| UGAAGUGAUAAAGAAUAUUAUUAGAAUAAAAUGUUUGUAUAUGUAUUUGUGUAUUAAAGAUGUAUUGAGUAAUUUUGUAUUUUUUACAUAUAAAUGUGCUAAAUUACUCU | 0.844 |
| UGUCAAAUUAAGAUAUGUAUUUGUAAGUUAUUGGUGGCUCAUUUAAACUGUAUCAUACAGUAAUGCCAGCAUUUUUAUUUAAUAGGUCAUCGUCUUCCUUUUAUAGCUGU | 0.51 |
| UUUAAGAUAGGACUAAGAGUUCAUCUCCUUCUAGAAGGCCCCCAGGUUAAAUAAAAACACUUGGGGGUAAGAGGGCUUUCUUCAGAGACUCCCAGGUGGGAGUGCCUCUA | 0.253 |
| UAGGUCAAGGACAAGUGCCUUCUAAGGCAUGGAUAAGGGCUUUCUUCUUAUGAAAGUCUAGACUGUCUUACUGUGAAGAUGGCCAGGGAGGAUAGCAAGCAAUGGCAUUC | 0.498 |
| GUGGCAGACUGACUUUGGACAGUGAGACCCUGACCUUGCUGCAUUGCUUUGCCUUCACCACCGCUAGUCUGUUUGGAAGGCUUGAGGUGGGGUGUCUUGGGAAAUUAGGG | 1.64 |
| UGAUUUUACAGGCUCAUAGGUGGAAGGGACUUGCCUUGUUUCAGAUGAGACUUUGGAGUAUGGACUUUUGAGUUAAUGCUGAAAUGAGUUAAGACUUUGGGGGACUGUUG | 0.503 |
| GGCCCAGUGUACACUUAAGCACAUGCCUAACUCAAGAGUUUAGAUUUUAGUAUAGUUUAAAGUUGAGCUGCCUUUUCUUAUGUAGCUAUUUAAAAUAUUUCUGAAGUUCA | 0.379 |

Block 4
Target: Interferon regulatory factor 5, full length, phosphomimetic (IRF5, Homo sapiens, UniProt Q13568-2, residues 1-514, K96S/S451D/S453D/S456D/S462D)
Technique: protein-binding microarray
Form: double-stranded DNA, one strand shown
Medium: in vitro
Tested at: 250 nM
Setting: 60-bp whole probe
Added: salmon DNA 0.4 mg/ml
Reference: random background probes
Direction: higher = stronger binding
Shared flanks, not repeated: GCCTAGCAC … GTCTTGATTCGCTTGACGCTGCTG
| Sequence | log fluorescence [z-score] |
| --- | --- |
| TTAGATCTCAGATTCGATTAGTGCTAG | 0.884 |
| GACGTTTTCGGTTCCGGGACGTGCTAG | 8.33 |
| GTGGGACCCATGAACACTCAGTGCTAG | -0.616 |
| TCACTCTTTGGCAAAGCCAGGTGCTAG | -0.248 |
| TCACATTGAGATTTTCATACTGTGCTA | 0.855 |
| TTGTGTCAACTTTCTCTGCTCGTGCTA | 1.22 |
| GACGATCTCAGTATCCAGACGTGCTAG | 0.125 |
| GACGGGCTGCTTTTCCTGACGTGCTAG | -0.424 |
| TTAGAACTGAGTCTCCATTAGTGCTAG | -0.0558 |
| TCAATTCTCTTCTTGCAACTGTGCTAG | 0.807 |
| GACTATCTCAGTATCGAGACGTGCTAG | 2.14 |
| TTTGAACTGGGGTTTCGATTAGTGCTA | 5.75 |
| GACGGACTGGACTATCGGTACGTGCTA | 3.85 |
| TCATCTAAGGATTTCAGACTGTGCTAG | 0.319 |
| GCTTCTATGTAGTTGATGAAGTGCTAG | 0.158 |
| GACGGTTTCCTTATCCTGTCGTGCTAG | 1.13 |
| GACGGACTTCTACTGCTGACGTGCTAG | 0.00171 |
| TTAGATATCAAACTGGATTAGTGCTAG | 0.157 |
| GACGGTCTCCTACTGCGGACGTGCTAG | -0.338 |
| GACGGTTCCGGTTTCGGGAGGTGCTAG | 4.74 |
| TTAGGTTTCAGGTTTCGGTTAGTGCTA | 8.47 |
| TTAGGTTGCGGTTCCGGTTAGTGCTAG | 1.65 |
| TTAGAACTCGGGACTGGATTAGTGCTA | -0.233 |

Block 5
Target: RING finger protein unkempt homolog, zinc fingers 1-6, GST-SBP tag (UNK, Homo sapiens, UniProt Q9C0B0, residues 30-357)
Technique: RNA Bind-n-Seq
Form: RNA
Medium: in vitro
Tested at: not given
Setting: RNA with constant flanks, human-mouse chimeric sites, ends assumed
Reference: input RNA pool
Direction: higher = stronger binding
Shared flanks, not repeated: GGGAGUUCUACAGUCCGACGAUC … CAACAGAGGAUUGAGCAUCA
Construct (chain): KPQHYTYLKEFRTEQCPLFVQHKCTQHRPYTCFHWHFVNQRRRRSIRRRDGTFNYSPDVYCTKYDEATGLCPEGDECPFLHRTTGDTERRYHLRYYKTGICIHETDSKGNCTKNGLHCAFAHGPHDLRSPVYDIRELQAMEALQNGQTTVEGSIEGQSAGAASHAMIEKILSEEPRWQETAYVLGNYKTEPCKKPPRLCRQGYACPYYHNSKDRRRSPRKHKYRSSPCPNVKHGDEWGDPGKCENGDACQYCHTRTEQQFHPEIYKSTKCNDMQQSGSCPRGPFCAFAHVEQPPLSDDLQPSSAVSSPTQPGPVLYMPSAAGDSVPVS
| Sequence | bound/input enrichment [ratio] |
| --- | --- |
| GAGCGUCUUGCCCGCACUGGGAUCAUCGUGACCACGAGUGAGGCUGUCCUCCUACAGCUGGUGGCUGACAAAGACCAUCCAAAAUUCAAGGAAAUUCAGAACCUAAUUAAGGCGAGUGCC | 0.12 |
| GGCUGCUGGUGACUGUCCUGGAGUGGCUGGAGUUCCCGCCGGAGCGCGCGCAGGUUAAUUUUAGAAAAUGCCAAGUAGGAAGUUUGUUGAGGGUGAAGUGGUCAGAGGCCGAUGGCCUGG | 4.73 |
| GGGGAGAAACCUUACGAGUGUGUGCAGUGUGGGAAAUCCUACAGUCAGAGCUCAAACCUCUUCAGACAUCAGAGAAGACACAAUGCAGAAAAACUUUUGAAUGUUGUGAAGGUUUAAGAA | 0.217 |
| UAAGUUAUUUUGUACAGCUUUGUAAAUUCUUAACAUUUUUAUAUUGCCAUGUUUAUUUUGUUUGGGUGCUUUAUUAAAUUAAGUACAUAGCUAAGGUAAUGAACAUCUUUUUCAGUAAUU | 0.985 |
| CAGCCUCAGAGCCCAGACUUCCUGGAUAUUACCAACCCUAAAGCGGUAUUAGAAAACGCAUUGAGAAACUUCGCCUGUCUGACGACUGGAGAUGUGAUUGCCAUCAACUACAAUGAGAAG | 0.335 |
| ACUCAGAGAUCCACCUCCCAAAGUGCUGGGAGUAAAGGUGUGGCCACCACACCUAACUUGAUGGAUAUAUAUUUUUUUUAAUAUGAAUGAACUCUUGCUUCAUCCAGAGAAAGAUUUGUU | 0.383 |
| CGAGACAAGACAUCCAGGAACAUGCGAGGCUCCCGGAUGAAUGGGUUGCCUAGCCCCACUCACAGCGCCCACUGUAGCUUCUACCGAACCAGAACCUUGCAGGCACUGAGUAAUGAGAAG | 0.0956 |
| UGACAAGGGCACUGCAGAGCCAUGCCUUUCCUUGACAUACAGAAAAAGCUGGGCAUCAGCCUGGACCGAUGGUUGACGUUCCUAAGCGCAGAACAGCCCUAUAAGAAGGCUGGUCGAUGC | 0.095 |
| AAAGAGUGGAUAGAGUGUGCACACGGGAUCGGUGGGACCCGGGCGAAAAAGGAGUGCAAGAUAGAGUUCGAUGACUUCGUAGAGUGUUUGCUUCGGUACAAAACGAUGAGACGUGCACAU | 0.401 |
| UUGAAAACAAACUGAUUUAAGUUUGAGUAUCACAAUGUUAGCUUUCUAAUUCCAUAAAAGUACUUGGUACAGUUUCUUUAUAAUCUGACAUCACCCCAGCGCCAUUUGUAAAGAGCAACU | 0.695 |
| AACAUUUUGUCAAAUUGUUAUGUUCCUGUGAAACAAGUGAACACUCUGAUACACUUCAUCUGCUUGUACAUCUGUAUGAUAGAGAAACAGAAAUCUAUUAAUCCAAGCAAUGUGUCACUU | 0.119 |

Excerpt of the above (block 4):
| Sequence | log fluorescence [z-score] |
| --- | --- |
| TTTGAACTGGGGTTTCGATTAGTGCTA | 5.75 |
| GACGGACTGGACTATCGGTACGTGCTA | 3.85 |
| TCATCTAAGGATTTCAGACTGTGCTAG | 0.319 |
| GCTTCTATGTAGTTGATGAAGTGCTAG | 0.158 |
| GACGGTTTCCTTATCCTGTCGTGCTAG | 1.13 |
| GACGGACTTCTACTGCTGACGTGCTAG | 0.00171 |
| TTAGATATCAAACTGGATTAGTGCTAG | 0.157 |
| GACGGTCTCCTACTGCGGACGTGCTAG | -0.338 |
| GACGGTTCCGGTTTCGGGAGGTGCTAG | 4.74 |
| TTAGGTTTCAGGTTTCGGTTAGTGCTA | 8.47 |
| TTAGGTTGCGGTTCCGGTTAGTGCTAG | 1.65 |
